Assay results pooled from the literature.
± gives the spread as reported. Values after ≈ are worked out from the molar mass of the structure shown.
UCHL1: Ubiquitin carboxyl-terminal hydrolase isozyme L1 (UCHL1, Homo sapiens, UniProt P09936)
UniProt P09936, sequence (whole entry, looked up): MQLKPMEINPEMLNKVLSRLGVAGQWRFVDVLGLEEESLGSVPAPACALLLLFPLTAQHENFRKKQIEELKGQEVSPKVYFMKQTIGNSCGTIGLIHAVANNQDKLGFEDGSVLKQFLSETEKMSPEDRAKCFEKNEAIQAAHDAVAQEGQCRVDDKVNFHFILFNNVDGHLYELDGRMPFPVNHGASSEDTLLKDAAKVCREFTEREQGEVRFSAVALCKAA

O=C1C(O)=C([C@H]2CC[C@H](c3ccc(Cl)cc3)CC2)C(=O)c2ccccc21
EC50 (Toxoplasma gondii; tachyzoite growth, luciferase; ME49-Fluc, type II): 0.1 µM

COc1cc(C#CC(=O)c2ccccc2)ccc1O
mRNA level (Pseudomonas aeruginosa; RT-qPCR, item: phzC1; biofilm cells; 10 µM, 24 h; relative to: untreated): 34%

O=C(Nc1ccncc1)c1cc([N+](=O)[O-])ccc1Cl
EC90 (Toxoplasma gondii; parasite growth; HFF, bradyzoite, glutamine-induced): 1.28 µM

OC[C@H]1O[C@@H]2O[C@H]3[C@H](O)[C@@H](O)[C@@H](O[C@H]4[C@H](O)[C@@H](O)[C@@H](O[C@H]5[C@H](O)[C@@H](O)[C@@H](O[C@H]6[C@H](O)[C@@H](O)[C@@H](O[C@H]7[C@H](O)[C@@H](O)[C@@H](O[C@H]8[C@H](O)[C@@H](O)[C@@H](O[C@H]1[C@H](O)[C@H]2O)O[C@@H]8CO)O[C@@H]7CO)O[C@@H]6CO)O[C@@H]5CO)O[C@@H]4CO)O[C@@H]3CO
bioluminescence induction (LuxR; Escherichia coli sensor; 4 µM; higher = stronger induction): 879 ± 50 RLU

CC(C)NCC(O)c1ccc(O)c(O)c1 (centres unmarked)
sarcomere length (ventricular cardiomyocytes, C57BL/6 mouse; dose not given, 0.532 s): 1.49 µm

COc1cc(C#CC(=O)c2ccccc2OC)ccc1O
mRNA level (Pseudomonas aeruginosa; RT-qPCR, item: phzC1; biofilm cells; 10 µM, 24 h; relative to: untreated): 46%

COc1cc(/C=C/C(=O)N2CCC=CC2=O)cc(OC)c1OC
EC50 (Toxoplasma gondii; parasite growth; HFF, bradyzoite, glutamine-induced): 3.36 µM

CC(C)(C)OC(=O)C(Br)(C(=O)OC(C)(C)C)c1ccc(Cl)nn1
labelling (UCHL1; covalent, intact protein LC-MS; 12.5 µM): 14%

S=C(S)N1CCCC1
EC90 (Toxoplasma gondii; parasite growth; HFF, bradyzoite, glutamine-induced): 22.2 µM

Nc1cccc2c1C(=O)N(C1CCC(=O)NC1=O)C2=O (centres unmarked)
surface marker level (RPMI-8226; flow cytometry, item: CD35; concentration not given; relative to: comparator compound alone): 41.3%

O=c1[nH]cc(F)c(=O)[nH]1
EC50 (Toxoplasma gondii; parasite growth, luciferase reporter; HFF, tachyzoite; 72 h): 0.677 µM

C[C@H](Oc1ccc(Br)cc1-c1ccon1)C(=O)O
difference from placebo (MVRC latency; human, tibialis anterior muscle; 800 mg, SAD): 0.165 ms

OC(CCN1CCCCC1)(c1ccccc1)C1CC2C=CC1C2 (centres unmarked)
EC50 (Toxoplasma gondii; parasite growth, luciferase reporter; HFF, tachyzoite; 72 h): 26.9 µM

c1coc(-c2n[nH]cc2-c2ccnc3ccccc23)c1
log2 fold change (MKK2 (Candida albicans); kinase binding, MIB/MS competition; Candida albicans lysate; 1 µM; relative to: DMSO): -0.15

CS(=O)(=O)c1ncc(Cl)c(C(=O)Nc2sc3c(c2C#N)CCCC3)n1
labelling (UCHL1; covalent, intact protein LC-MS; 12.5 µM): 6.62%

CCn1cc(-c2cc(Cn3ccoc3=N)cc3c2CCN([C@@H](C)c2cc(OC)ccn2)C3=O)c(C(F)(F)F)n1
EC50 (COV362; cell growth, inhibitor; 120 h): 0.866 µM

NC(=O)c1cnc2[nH]ccc2c1N[C@@H]1[C@@H]2CC3C[C@H]1C[C@@](O)(C3)C2
change from baseline (flow cytometry, item: CD4+ memory T cells; Japanese healthy subjects, peripheral blood; oral, 10 mg twice daily, day 7): 0.95%

Cn1cc(-c2ccc(-c3cncc(Cl)c3N3CCC4(CCNC4=O)CC3)cc2)cn1
log2 fold change (COLO 205; gene expression, microarray, item: ARHGDIG mRNA; concentration not given, 2 h; relative to: untreated cells): 3.4

COc1ccc(C(=O)C#Cc2ccc(O)c(OC)c2)cc1
biofilm formation (Pseudomonas aeruginosa; static biofilm; PA14; 10 µM, 24 h, static; relative to: DMSO): 73%

CC(C)(C)c1cc(/C=C(\C#N)C(N)=S)cc(C(C)(C)C)c1O
EC50 (Toxoplasma gondii; parasite growth, luciferase reporter; HFF, tachyzoite; 72 h): 2.7 µM

COc1cc(C#CC(O)CC(C)C)ccc1O (centres unmarked)
biofilm formation (Pseudomonas aeruginosa; static biofilm; PA14; 10 µM, 24 h; relative to: DMSO): 75%

C=C1C(=O)O[C@H]2[C@H]1CC/C(C)=C/CC[C@@]1(C)O[C@@H]21
EC50 (Toxoplasma gondii; parasite growth; HFF, bradyzoite, glutamine-induced): 5.92 µM

CCn1cc(-c2cc(Cn3ccnc3)cc3c2CCN([C@H](c2cc(OC)ccn2)C2CC2)C3=O)c(C(F)(F)F)n1
EC50 (NCI-H1792; cell growth, inhibitor; 120 h): 6.82 µM

O=C(C#Cc1ccc(F)c(F)c1)c1cccc(Cl)c1
biofilm formation (Pseudomonas aeruginosa; static biofilm; PA14; 10 µM, 24 h, static; relative to: DMSO): 56%

COc1cnc2cccc(N3CCc4c(cc(Cn5ccnc5C)cc4-c4cn(C)nc4C(F)(F)F)C3=O)c2c1
EC50 (SNU761; cell growth; 120 h): > 30 µM

O=C(O)CNC(=O)Cc1ccccc1
sarcomere length (ventricular cardiomyocytes, C57BL/6 mouse; dose not given, 0.084 s): 1.72 µm

COc1ccc(C(=O)C#Cc2ccc(F)c(F)c2)cc1
biofilm formation (Pseudomonas aeruginosa; static biofilm; PA14; 10 µM, 24 h; relative to: DMSO): 88%

OC[C@H]1O[C@@H](O[C@@H]2[C@@H](O)[C@H](O[C@@H]3[C@@H](O)[C@H](O[C@@H]4[C@@H](O)[C@H](O[C@@H]5[C@@H](O)[C@H](O[C@H]6[C@H](O)[C@@H](CO)OC(O)[C@@H]6O)O[C@H](CO)[C@H]5O)O[C@H](CO)[C@H]4O)O[C@H](CO)[C@H]3O)O[C@H](CO)[C@H]2O)[C@H](O)[C@@H](O)[C@@H]1O (some centres unmarked)
ΔH (Bacteroides uniformis; binding, ITC; pH 7.0, 25 °C, distal domain): -45.5 kcal/mol

OC(Cn1cncn1)(Cn1cncn1)c1ccc(F)cc1F
MIC (Nakaseomyces glabratus; CG4, azole-susceptible, RPMI 1640; 24 h, 35 °C): 3.12 µM (≈ 0.957 µg/mL)

OC(CCN1CCCCC1)(c1ccccc1)C1CC2C=CC1C2 (centres unmarked)
change in EEG Beta3-power Fz-Cz (resting-state EEG; healthy elderly humans; oral, 4 mg, eyes open, LS mean; relative to: baseline): 10.1%

COc1cccc(C(=O)C#Cc2ccc(O)c(OC)c2)c1
biofilm formation (Pseudomonas aeruginosa; static biofilm; PA14; 10 µM, 24 h; relative to: DMSO): 65%

O=C(/C=C/C=C/C=C/C1CCCCC1)NC1=C[C@@](O)(/C=C/C=C/C=C/C(=O)NC2=C(O)CCC2=O)[C@@H]2O[C@@H]2C1=O
GI50 (RVH-421; cell growth, CellTiter-Glo; 78 h): 16.9 µM

C[C@H]1C[C@H]2CSC(N)=N[C@@]2(c2nc(NC(=O)c3ccc(OC(F)F)cn3)cs2)CO1
percent change from baseline (item: Aβx-40; healthy adults, plasma; 5 mg once daily, day 4; relative to: placebo): -40.5%

COc1cccc(C(=O)C#Cc2ccc(F)c(F)c2)c1
mRNA level (Pseudomonas aeruginosa; RT-qPCR, item: lasB; biofilm cells; 10 µM, 24 h; relative to: untreated): 47%

Oc1ccccc1-c1n[nH]cc1-c1ccnc2ccccc12
log2 fold change (YAK1 (Candida albicans); kinase binding, MIB/MS competition; Candida albicans lysate; 10 µM; relative to: DMSO): 0.27

Excerpt of the above:
COc1cc(/C=C/C(=O)N2CCC=CC2=O)cc(OC)c1OC
EC50 (Toxoplasma gondii; parasite growth; HFF, bradyzoite, glutamine-induced): 3.36 µM

CC(C)(C)OC(=O)C(Br)(C(=O)OC(C)(C)C)c1ccc(Cl)nn1
labelling (UCHL1; covalent, intact protein LC-MS; 12.5 µM): 14%

S=C(S)N1CCCC1
EC90 (Toxoplasma gondii; parasite growth; HFF, bradyzoite, glutamine-induced): 22.2 µM

Nc1cccc2c1C(=O)N(C1CCC(=O)NC1=O)C2=O (centres unmarked)
surface marker level (RPMI-8226; flow cytometry, item: CD35; concentration not given; relative to: comparator compound alone): 41.3%

O=c1[nH]cc(F)c(=O)[nH]1
EC50 (Toxoplasma gondii; parasite growth, luciferase reporter; HFF, tachyzoite; 72 h): 0.677 µM
